Experimental data of several laboratories.
Each line is one published result; not all experiments were run side by side. Numbers after ± are the reported error.

C=CC(=O)N(C)CCOc1c(N)ncnc1-c1cc(F)cc(NC(=O)c2ccc(C3CC3)cc2F)c1C — AUC(0-inf) (human, whole blood; oral, 100 mg, single ascending dose): 333 ± 143 ng·h/mL
Cc1[nH]c(/C=C2\C(=O)Nc3ccc(F)cc32)c(C)c1C(=O)N[C@H]1CCN(C(=O)N(C)C)C1 — AUC(0-inf) (human patients, plasma; oral, 100 mg single dose, with: everolimus 5 mg): 4630 ± 2460 ng·h/mL
CN(C)C(=O)c1cc2cnc(Nc3ccc(N4CCNCC4)cn3)nc2n1C1CCCC1 — AUC(0-inf) (human, normal renal function, plasma; oral, 400 mg, single dose, adjusted geometric mean): 5570 ng·h/mL
C#C[C@]1(CO)O[C@@H](n2cnc3c(N)nc(F)nc32)C[C@@H]1O — AUC(0-inf) (human, plasma; oral, 15 mg, single dose, geometric mean): 1.57 µM·h
CN(CC#N)C(=O)C[C@H](Nc1nc2ccccc2[nH]1)c1cccc(C(F)(F)F)c1 — AUC(0-inf) (human; intravenous infusion, 1.5 mg/kg, 1 mg/mL formulation): 7330 ± 1580 ng·h/mL
CNC(=O)n1ccc2cc(Oc3ccnc(NC(=O)c4ccc(C5CCN(CCO)CC5)cc4)c3)c(OCCOC)cc21 — AUC(0-inf) (healthy human, plasma; oral, 35 mg, geometric mean, with: rabeprazole 20 mg): 117 ng·h/mL
CC(C)=CCC/C(C)=C/CC/C(C)=C/CC[C@@](C)(O)CCC1=C(C)C(=O)C(C)=C(C)C1=O — AUC(0-inf) (healthy human, plasma; oral, 400 mg, with: itraconazole 200 mg): 11900 ng·h/mL
CC[C@H](Nc1ncnc2[nH]cnc12)c1oc2ccccc2c(=O)c1-c1cccc(F)c1 — AUC(0-inf) (human, plasma; oral, 800 mg twice daily, with: romidepsin 14 mg/m2): 99000 ± 122000 ng·h/mL
Cn1nnc2c(C(N)=O)ncn2c1=O — AUC(0-inf) (human patients, plasma; oral, 20 mg/m2, day 5, dose level DL3, median, with: talazoparib 600 µg/m2): 1690 ng·h/mL
CC(C)[C@@H]1CC[C@@H](C)C[C@H]1OC(=O)O[C@@H](C)OC(=O)[C@H]1[C@@H]2C[C@H](F)[C@@](N)(C(=O)O)[C@@H]21 — AUC(0-inf) (human, plasma; oral, 10 mg single dose, fed): 22.6 ng·h/mL
Cc1cc(C)c(CNC(=O)c2cc(Cl)c3c(c2C)O[C@@](C)([C@H]2CC[C@H](N(C)C)CC2)O3)c(=O)[nH]1 — AUC(0-inf) (measured: total radioactivity; human, plasma; oral, 200 mg): 25800 ng eq·h/mL
COc1ccc([C@@H]2CN(C(=O)[C@@H](O)CO)C[C@@]2(C)[C@@H](C)O)cc1OC1CN(c2ccc(C)cn2)C1 — AUC(0-inf) (healthy human, plasma; oral, 20 mg): 4740 ng·h/mL
C[C@H]1CN(C(=O)CC#N)[C@]12CCN(c1ncnc3[nH]ccc13)C2 — AUC(0-inf) (healthy human, plasma; oral, 3 mg single, median): 61.5 ng·h/mL
NC(=O)c1[nH]cnc1N — AUC(0-inf) (human patients, plasma; IV infusion over 1 h, 1000 mg/m^2 DTIC, cycle 2 day 1, co-administered with co-drug): 8450 ng·h/mL
Cn1cc(-c2ccc(S(=O)(=O)[C@@H]3C[C@@H](C(=O)NC4(C#N)CC4)N(C(=O)C4(C(F)(F)F)CC4)C3)c(C(F)(F)F)c2)cn1 — AUC(0-inf) (noncompartmental analysis; human, plasma; oral, 100 mg, day 1, with food, geometric mean): 13600 ng·h/mL
C[C@@H](Oc1ccc(S(C)(=O)=O)cc1C(=O)N1C[C@@H]2C[C@]2(c2cc(C(F)(F)F)on2)C1)C(F)(F)F — AUC(0-inf) (elderly humans, plasma; oral, 50 mg once daily, single dose, geometric mean): 16 µM·h
Cn1cncc1[C@@](N)(c1ccc(Cl)cc1)c1ccc2c(c1)c(-c1cccc(Cl)c1)cc(=O)n2C — AUC(0-inf) (human patients; oral, 300 mg/m2, first dose, cycle 1, initial cohort, median): 17100 ng·h/mL
O=C(O)c1cc(/N=N/c2ccc(S(=O)(=O)Nc3ccccn3)cc2)ccc1O — AUC(0-inf) (LC-MS; human, plasma; oral, 1000 mg, day 1; arithmetic mean): 67900 ng·h/mL
CCCn1cc(C)c2c(=O)[nH]c(-c3cc(S(=O)(=O)N4CCN(CC)CC4)ccc3OCC)nc21 — AUC(0-inf) (human, plasma; oral, 100 mg): 212 ± 121 ng·h/mL
Cc1ccc(C(=O)N(CCCN)C(c2nc3snc(C)c3c(=O)n2Cc2ccccc2)C(C)C)cc1 (stereo not drawn) — AUC(0-inf) (human patients, plasma; intravenous, 7 mg/day, day 3 after induction, geometric mean): 750 ng·h/mL
N[C@](CO)(CCc1ccc(Sc2cccc(OCc3ccccc3)c2)cc1Cl)COP(=O)(O)O — AUC(0-inf) (human, blood; 3 mg, mean, alone): 169 ng·h/mL
CC(C)c1nc(N(C)S(C)(=O)=O)nc(-c2ccc(F)cc2)c1/C=C/[C@@H](O)C[C@@H](O)CC(=O)O — AUC(0-inf) (healthy human subjects, plasma; oral, 10 mg, geometric mean, with: fruquintinib 5 mg): 29.3 ng·h/mL
Cc1cc(Nc2cc3ncccc3c(N[C@@H]3C[C@H]4CC[C@@H](C3)N4CCC#N)n2)n[nH]1 — AUC(0-inf) (human, plasma; 100 mg single dose, mean): 18 ng·h/mL
C=CC(=O)NC1CCN(c2ncc3ncnc(Nc4ccc(Oc5ccc6c(c5)ncn6C)c(C)c4)c3n2)CC1 — AUC(0-inf) (human, male, plasma; oral, 240 mg, fed, adjusted geometric mean): 60 µM·h
CNC(=O)c1ccc(-c2cnc3ncc(Cc4ccc5ncccc5c4)n3n2)cc1F — AUC(0-inf) (human moderate hepatic impairment NCI; oral, 200 mg single dose, mean): 7990 ng·h/mL
CC1=C(c2cccc(O)c2)[C@H](c2ccc(OCCN3CC(CF)C3)cc2)Oc2ccc(O)cc21 — AUC(0-inf) (human, plasma; oral, 600 mg single dose, geometric mean): 1220 ng·h/mL
COC(=O)N[C@@H](C)CNc1nccc(-c2cn(C(C)C)nc2-c2cc(Cl)cc(NS(C)(=O)=O)c2F)n1 — AUC(0-inf) (human, plasma; oral, 50 mg, geometric mean, with: diltiazem 240 mg once daily): 3510 ng·h/mL
N[C@@H]1c2cccnc2[C@H](OC(=O)N2CCC(n3c(=O)[nH]c4ncccc43)CC2)CC[C@H]1c1cccc(F)c1F — AUC(0-inf) (human, plasma; oral, 75 mg single dose, alone, arithmetic mean, itraconazole DDI study): 4860 ng·h/mL
CN1C(=O)[C@@H](NC(=O)c2nnc(Cc3ccccc3)[nH]2)COc2cccnc21 — AUC(0-inf) (healthy human, fasted, plasma; oral, 200 mg single dose, geometric mean): 32100 ng·h/mL
Cn1cncc1-c1c(F)cncc1NC(=O)c1c(N)nn2cc(F)cnc12 — AUC(0-inf) (human patients, plasma; oral, 90 mg): 1830 ng·h/mL
Cc1cc(C)c(CNC(=O)c2cc(Cl)c3c(c2C)O[C@@](C)([C@H]2CC[C@H](N(C)C)CC2)O3)c(=O)[nH]1 — AUC(0-inf) (geometric LS mean; healthy male humans, plasma; oral, dose not given, with: fluconazole): 967 ng·h/mL
CCNCCCNC/C=C\CNCCCNCC — AUC(0-inf) (LC-MS/MS; human cancer patients, plasma; intravenous infusion 60 min, 50 mg, median, cycle 1): 80 ng·h/mL
C[C@H](O)c1cc(C(=O)N[C@@H](C)Cn2ccc(-c3ccc(C#N)c(Cl)c3)n2)n[nH]1 — AUC(0-inf) (healthy male human, plasma; intravenous infusion, 100 µg 14C-labelled, 15 min infusion, microtracer, geometric mean): 10300 h·pg eq/mL
CCN1CCN(Cc2ccc(Nc3ncc(F)c(-c4cc(F)c5nc(C)n(C(C)C)c5c4)n3)nc2)CC1 — AUC(0-inf) (fasted healthy human subjects, plasma; oral, 200 mg, capsule): 3680 ng·h/mL
COc1cc(C(=O)NC2CCN(C)CC2)c(F)cc1Nc1ncc(C(F)(F)F)c(Oc2cccc3c2C(=O)N(C)C3)n1 — AUC(0-inf) (human, Japanese, plasma; oral, 200 mg single dose, geometric mean): 29 µM·h
O=C(O)CCC(=O)O.[2H]C([2H])([2H])Oc1cc(C)c2[nH]ccc2c1CN1CC[C@@H](C2CC2)C[C@H]1c1ccc(C(=O)O)cc1 — AUC(0-inf) (healthy humans, fed; oral, 200 mg, single dose, high-fat meal): 127000 ng·h/mL

A few entries again:
C[C@H]1CN(C(=O)CC#N)[C@]12CCN(c1ncnc3[nH]ccc13)C2 — AUC(0-inf) (healthy human, plasma; oral, 3 mg single, median): 61.5 ng·h/mL
Cc1cc(Nc2cc3ncccc3c(N[C@@H]3C[C@H]4CC[C@@H](C3)N4CCC#N)n2)n[nH]1 — AUC(0-inf) (human, plasma; 100 mg single dose, mean): 18 ng·h/mL
CNC(=O)n1ccc2cc(Oc3ccnc(NC(=O)c4ccc(C5CCN(CCO)CC5)cc4)c3)c(OCCOC)cc21 — AUC(0-inf) (healthy human, plasma; oral, 35 mg, geometric mean, with: rabeprazole 20 mg): 117 ng·h/mL
